Results of several laboratories.
A part holds a random share of what one study measured. Positions count from the first letter of the parent shown.
UniProt P53355, sequence (whole entry, looked up): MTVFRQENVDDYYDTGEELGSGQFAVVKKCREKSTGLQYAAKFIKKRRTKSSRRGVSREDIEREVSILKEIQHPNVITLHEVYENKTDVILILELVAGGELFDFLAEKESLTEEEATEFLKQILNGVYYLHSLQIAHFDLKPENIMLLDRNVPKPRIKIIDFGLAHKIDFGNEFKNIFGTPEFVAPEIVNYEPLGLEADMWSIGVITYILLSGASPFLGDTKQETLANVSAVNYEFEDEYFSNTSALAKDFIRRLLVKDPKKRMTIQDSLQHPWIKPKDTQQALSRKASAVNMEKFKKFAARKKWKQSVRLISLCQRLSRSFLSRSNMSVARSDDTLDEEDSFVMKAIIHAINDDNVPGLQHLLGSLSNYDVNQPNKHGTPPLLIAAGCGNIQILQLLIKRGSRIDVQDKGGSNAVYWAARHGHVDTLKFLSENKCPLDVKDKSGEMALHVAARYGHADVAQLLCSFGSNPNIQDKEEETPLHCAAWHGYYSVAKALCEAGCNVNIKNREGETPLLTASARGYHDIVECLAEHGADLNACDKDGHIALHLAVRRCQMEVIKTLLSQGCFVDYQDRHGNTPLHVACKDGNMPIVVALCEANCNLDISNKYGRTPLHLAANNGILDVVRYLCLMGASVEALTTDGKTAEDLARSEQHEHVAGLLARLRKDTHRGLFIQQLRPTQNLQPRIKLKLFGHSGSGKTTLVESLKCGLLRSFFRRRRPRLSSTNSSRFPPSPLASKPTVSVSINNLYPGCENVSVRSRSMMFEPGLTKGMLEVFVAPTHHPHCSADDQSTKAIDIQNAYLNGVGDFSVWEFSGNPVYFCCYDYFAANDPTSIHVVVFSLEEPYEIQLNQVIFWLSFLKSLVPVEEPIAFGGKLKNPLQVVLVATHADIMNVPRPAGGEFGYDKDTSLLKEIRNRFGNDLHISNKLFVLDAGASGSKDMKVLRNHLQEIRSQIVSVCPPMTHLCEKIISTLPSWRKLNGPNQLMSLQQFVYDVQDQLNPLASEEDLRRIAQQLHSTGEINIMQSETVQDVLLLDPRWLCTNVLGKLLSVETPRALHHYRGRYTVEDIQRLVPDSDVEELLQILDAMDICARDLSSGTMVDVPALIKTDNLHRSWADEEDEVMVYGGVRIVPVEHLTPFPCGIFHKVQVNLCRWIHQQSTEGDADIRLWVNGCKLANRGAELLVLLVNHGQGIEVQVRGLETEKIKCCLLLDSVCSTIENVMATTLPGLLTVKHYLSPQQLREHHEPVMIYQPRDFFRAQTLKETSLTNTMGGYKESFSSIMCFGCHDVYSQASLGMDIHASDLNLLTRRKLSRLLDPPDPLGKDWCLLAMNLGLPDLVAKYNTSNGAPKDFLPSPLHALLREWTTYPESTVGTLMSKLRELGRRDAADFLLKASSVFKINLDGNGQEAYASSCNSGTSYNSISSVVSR
UniProt Q9NQU5, sequence (whole entry, looked up): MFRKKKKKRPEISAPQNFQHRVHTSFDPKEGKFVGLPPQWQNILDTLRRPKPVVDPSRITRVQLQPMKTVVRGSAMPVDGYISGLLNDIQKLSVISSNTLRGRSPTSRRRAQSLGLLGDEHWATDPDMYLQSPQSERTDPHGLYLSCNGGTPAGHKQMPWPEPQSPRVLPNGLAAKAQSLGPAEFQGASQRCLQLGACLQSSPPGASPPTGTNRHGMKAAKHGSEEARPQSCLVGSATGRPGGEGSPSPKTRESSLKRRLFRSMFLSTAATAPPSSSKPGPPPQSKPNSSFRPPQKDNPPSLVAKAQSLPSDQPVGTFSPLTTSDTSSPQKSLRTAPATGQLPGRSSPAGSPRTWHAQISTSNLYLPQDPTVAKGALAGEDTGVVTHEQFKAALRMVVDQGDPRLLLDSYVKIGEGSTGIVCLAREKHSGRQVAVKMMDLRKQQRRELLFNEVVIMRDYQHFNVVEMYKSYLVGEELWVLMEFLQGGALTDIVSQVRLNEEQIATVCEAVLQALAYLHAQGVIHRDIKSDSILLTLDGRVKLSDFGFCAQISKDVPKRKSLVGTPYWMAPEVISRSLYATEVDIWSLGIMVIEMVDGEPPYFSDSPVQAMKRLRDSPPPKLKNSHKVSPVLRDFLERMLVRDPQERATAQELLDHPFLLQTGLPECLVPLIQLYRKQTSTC
UniProt Q8WXR4, sequence (whole entry, looked up): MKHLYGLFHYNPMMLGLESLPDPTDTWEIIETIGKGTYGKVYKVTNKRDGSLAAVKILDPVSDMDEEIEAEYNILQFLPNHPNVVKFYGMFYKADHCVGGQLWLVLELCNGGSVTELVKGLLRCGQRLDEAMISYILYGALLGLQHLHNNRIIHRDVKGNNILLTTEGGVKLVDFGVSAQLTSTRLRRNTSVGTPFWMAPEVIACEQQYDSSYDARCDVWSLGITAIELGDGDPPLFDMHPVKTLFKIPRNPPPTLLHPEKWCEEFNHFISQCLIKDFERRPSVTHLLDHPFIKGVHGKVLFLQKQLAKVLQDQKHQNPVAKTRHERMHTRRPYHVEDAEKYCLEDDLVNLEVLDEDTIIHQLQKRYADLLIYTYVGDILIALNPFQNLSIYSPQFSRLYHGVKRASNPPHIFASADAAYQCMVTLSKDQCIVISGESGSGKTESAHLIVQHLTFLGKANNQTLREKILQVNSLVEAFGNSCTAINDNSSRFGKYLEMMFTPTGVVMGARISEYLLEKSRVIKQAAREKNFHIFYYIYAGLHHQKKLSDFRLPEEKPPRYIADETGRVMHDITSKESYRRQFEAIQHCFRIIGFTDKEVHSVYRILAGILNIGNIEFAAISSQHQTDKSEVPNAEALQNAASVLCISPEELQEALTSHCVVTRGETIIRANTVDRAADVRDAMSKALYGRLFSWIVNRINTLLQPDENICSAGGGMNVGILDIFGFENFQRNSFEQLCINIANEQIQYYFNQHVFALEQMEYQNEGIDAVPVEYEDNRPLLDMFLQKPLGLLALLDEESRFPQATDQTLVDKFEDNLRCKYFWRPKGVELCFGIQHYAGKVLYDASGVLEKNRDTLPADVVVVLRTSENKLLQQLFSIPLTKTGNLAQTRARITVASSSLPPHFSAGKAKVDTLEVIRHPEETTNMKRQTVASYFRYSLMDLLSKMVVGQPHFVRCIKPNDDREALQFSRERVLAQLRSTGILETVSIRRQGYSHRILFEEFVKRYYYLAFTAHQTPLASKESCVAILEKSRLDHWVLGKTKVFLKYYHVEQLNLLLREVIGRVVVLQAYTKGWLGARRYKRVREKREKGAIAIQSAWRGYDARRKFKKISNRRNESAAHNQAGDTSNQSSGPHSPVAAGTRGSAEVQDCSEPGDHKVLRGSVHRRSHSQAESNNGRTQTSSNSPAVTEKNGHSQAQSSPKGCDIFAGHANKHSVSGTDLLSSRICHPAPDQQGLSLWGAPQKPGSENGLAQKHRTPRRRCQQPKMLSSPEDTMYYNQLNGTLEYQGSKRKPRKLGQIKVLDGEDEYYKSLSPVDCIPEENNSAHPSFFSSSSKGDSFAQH
UniProt P51955, sequence (whole entry, looked up): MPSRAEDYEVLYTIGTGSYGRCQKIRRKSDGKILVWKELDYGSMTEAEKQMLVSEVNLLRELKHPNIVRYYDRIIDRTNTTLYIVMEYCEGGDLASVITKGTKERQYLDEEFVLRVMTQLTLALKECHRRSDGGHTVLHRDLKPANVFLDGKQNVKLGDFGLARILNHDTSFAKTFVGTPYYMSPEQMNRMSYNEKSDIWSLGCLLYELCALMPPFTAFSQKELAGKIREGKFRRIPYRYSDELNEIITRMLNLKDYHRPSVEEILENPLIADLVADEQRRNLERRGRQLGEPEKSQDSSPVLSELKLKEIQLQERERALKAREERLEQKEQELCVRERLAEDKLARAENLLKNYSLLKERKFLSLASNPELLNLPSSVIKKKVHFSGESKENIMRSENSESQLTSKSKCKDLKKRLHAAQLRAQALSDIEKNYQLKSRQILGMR
UniProt Q9P289, sequence (whole entry, looked up): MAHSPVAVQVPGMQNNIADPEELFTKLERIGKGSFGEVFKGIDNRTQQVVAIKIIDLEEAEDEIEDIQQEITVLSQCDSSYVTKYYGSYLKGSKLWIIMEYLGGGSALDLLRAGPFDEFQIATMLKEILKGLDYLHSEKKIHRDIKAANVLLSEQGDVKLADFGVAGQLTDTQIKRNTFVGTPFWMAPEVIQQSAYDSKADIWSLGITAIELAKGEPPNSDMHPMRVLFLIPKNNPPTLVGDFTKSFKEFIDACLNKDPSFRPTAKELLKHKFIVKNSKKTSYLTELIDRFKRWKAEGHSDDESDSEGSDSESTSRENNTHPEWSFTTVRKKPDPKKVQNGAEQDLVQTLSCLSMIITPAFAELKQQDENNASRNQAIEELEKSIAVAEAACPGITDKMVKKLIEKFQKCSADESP

Sample 1
Target: Histone acetyltransferase KAT6A, both winged helices, GST fusion (KAT6A, Homo sapiens, UniProt Q92794, residues 1-181)
Technique: protein binding microarray
Form: double-stranded DNA, one strand shown
Sample: in vitro
Concentration: not given
Notes: 8-mer, flanks averaged, mean of 2 arrays, mostly near background
Baseline: not given
Reading: higher = stronger binding
Target sequence (chain): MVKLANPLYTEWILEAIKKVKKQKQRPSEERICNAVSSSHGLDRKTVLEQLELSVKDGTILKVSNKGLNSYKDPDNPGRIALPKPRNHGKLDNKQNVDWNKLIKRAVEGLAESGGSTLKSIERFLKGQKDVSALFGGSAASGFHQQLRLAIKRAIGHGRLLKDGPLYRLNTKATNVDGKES
| Sequence | E-score |
| --- | --- |
| AAGGGGAT | -0.257 |
| AGCGACTG | -0.0279 |
| CCTGGGTC | -0.0414 |
| GCGTTAAA | 0.124 |
| CCCGCAGC | 0.123 |
| ATCACGCA | 0.132 |
| GGAAGCTA | -0.00284 |
| ATATTTGG | -0.152 |

Sample 2
Target: CREB3, bZIP domain (human)
Technique: DHFR protein complementation
Sample: yeast
Notes: single substitutions, most at no-binding floor
Baseline: wild-type JUN-FOS pair
Reading: higher = stronger binding
Starting sequence: JUN, bZIP domain (human); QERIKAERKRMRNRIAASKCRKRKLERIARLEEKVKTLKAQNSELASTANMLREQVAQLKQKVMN; partner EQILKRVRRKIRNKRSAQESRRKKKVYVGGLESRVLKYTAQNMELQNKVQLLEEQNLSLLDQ
| Change | binding fitness |
| --- | --- |
| A57K | -1.59 natural log |
| L31T | -1.38 natural log |
| A57W | -1.42 natural log |
| E32N | -1.53 natural log |
| K39T | -1.25 natural log |
| E54M | -1.59 natural log |
| N42L | -1.5 natural log |
| R30H | -1.53 natural log |

Sample 3
Compound: CC(C)[C@H](CO)Nc1nc(Nc2cccc(Cl)c2)c2ncn(C(C)C)c2n1
Observed: enzyme activity
Mode: inhibitor
Concentration: 0.5 µM
Baseline: control
| target | remaining activity |
| --- | --- |
| Inhibitor of nuclear factor kappa-B kinase subunit epsilon (IKBKE, Homo sapiens, UniProt Q14164) | 99.2% |
| STE20/SPS1-related proline-alanine-rich protein kinase (STK39, Homo sapiens, UniProt Q9UEW8) | 99.2% |
| Calcium/calmodulin-dependent protein kinase type II subunit delta (CAMK2D, Homo sapiens, UniProt Q13557) | 102% |
| Serine/threonine-protein kinase Nek2 (NEK2, Homo sapiens, UniProt P51955) | 102% |
| Mitogen-activated protein kinase 9 (MAPK9, Homo sapiens, UniProt P45984) | 102% |
| Serine/threonine-protein kinase Chk2 (CHEK2, Homo sapiens, UniProt O96017) | 88.1% |
| Death-associated protein kinase 1 (DAPK1, Homo sapiens, UniProt P53355) | 99.7% |

Sample 4
SMILES: C[C@@]1(Cc2ccc(C#N)cc2)C(=O)N(c2cc(Cl)cc(Cl)c2)c2ncc(C(=O)NC3(c4nc(C5CCC5)no4)CC3)n21
Observed: cell-free assay
Technique: competition with immobilised ligand
Concentration: 1 µM
| target | remaining binding [%] |
| --- | --- |
| Serine/threonine-protein kinase Nek1 (NEK1, Homo sapiens, UniProt Q96PY6) | 48 |
| Myosin-IIIb (MYO3B, Homo sapiens, UniProt Q8WXR4) | 99 |
| Serine/threonine-protein kinase PAK 6 (PAK6, Homo sapiens, UniProt Q9NQU5) | 100 |
| Serine/threonine-protein kinase pim-3 (PIM3, Homo sapiens, UniProt Q86V86) | 100 |
| Serine/threonine-protein kinase 26 (STK26, Homo sapiens, UniProt Q9P289) | 100 |

For quick reference, copied from above (sample 4):
| target | remaining binding [%] |
| --- | --- |
| Serine/threonine-protein kinase Nek1 (NEK1, Homo sapiens, UniProt Q96PY6) | 48 |
| Myosin-IIIb (MYO3B, Homo sapiens, UniProt Q8WXR4) | 99 |
